{"data": "Published values of several laboratories", "note": "Numbered parts are unrelated; each lists some results of a single study."}
{"data": "Set 1", "target": "Sal-like protein 4, full length isoform A (SALL4, Homo sapiens, UniProt Q9UJQ4, residues 1-1053)", "technique": "universal PBM", "form": "double-stranded DNA, one strand shown", "matrix": "in vitro", "tested at": "600 nM", "setting": "8-mer, flanks averaged, mean of replicates", "reading": "higher = stronger binding", "sequence of UniProt Q9UJQ4 (whole entry, looked up)": "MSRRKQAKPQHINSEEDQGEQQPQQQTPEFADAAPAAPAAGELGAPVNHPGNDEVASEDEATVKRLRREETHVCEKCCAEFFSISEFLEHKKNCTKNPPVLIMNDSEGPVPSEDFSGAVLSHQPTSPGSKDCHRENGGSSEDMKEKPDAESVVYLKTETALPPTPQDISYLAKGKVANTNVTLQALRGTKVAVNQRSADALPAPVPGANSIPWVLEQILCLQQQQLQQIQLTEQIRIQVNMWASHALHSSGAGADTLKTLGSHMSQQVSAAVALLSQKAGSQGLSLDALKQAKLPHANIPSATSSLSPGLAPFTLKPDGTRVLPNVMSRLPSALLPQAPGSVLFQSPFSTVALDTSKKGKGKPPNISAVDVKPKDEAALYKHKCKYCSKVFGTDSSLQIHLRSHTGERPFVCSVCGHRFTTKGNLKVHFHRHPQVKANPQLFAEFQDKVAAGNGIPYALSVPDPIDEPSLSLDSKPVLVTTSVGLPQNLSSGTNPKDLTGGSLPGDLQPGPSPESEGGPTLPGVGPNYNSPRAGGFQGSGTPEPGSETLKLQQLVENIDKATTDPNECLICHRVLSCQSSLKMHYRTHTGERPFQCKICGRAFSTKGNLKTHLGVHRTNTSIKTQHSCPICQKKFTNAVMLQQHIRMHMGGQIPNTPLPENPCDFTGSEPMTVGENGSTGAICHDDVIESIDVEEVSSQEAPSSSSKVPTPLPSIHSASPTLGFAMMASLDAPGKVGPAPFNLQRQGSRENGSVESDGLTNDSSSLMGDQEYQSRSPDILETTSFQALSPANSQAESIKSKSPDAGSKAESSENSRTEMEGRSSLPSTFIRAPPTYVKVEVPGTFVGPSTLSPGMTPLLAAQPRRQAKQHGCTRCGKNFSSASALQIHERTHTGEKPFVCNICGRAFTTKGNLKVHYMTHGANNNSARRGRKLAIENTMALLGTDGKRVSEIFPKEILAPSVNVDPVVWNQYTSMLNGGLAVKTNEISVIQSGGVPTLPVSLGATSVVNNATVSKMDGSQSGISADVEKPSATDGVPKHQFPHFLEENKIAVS"}
{"Oligonucleotide": "CCCCGAGC", "E-score": -0.171}
{"Oligonucleotide": "CCACGTCC", "E-score": -0.268}
{"Oligonucleotide": "CTGCGCTC", "E-score": -0.319}
{"Oligonucleotide": "CCCATTCG", "E-score": -0.112}
{"Oligonucleotide": "AATCTAGA", "E-score": 0.167}
{"Oligonucleotide": "CTTGGCCC", "E-score": -0.356}
{"Oligonucleotide": "TAAAAAAA", "E-score": 0.354}
{"Oligonucleotide": "GTTTGCGA", "E-score": 0.0908}
{"data": "Set 2", "target": "Replicase polyprotein 1ab, nsp13 helicase (rep, Severe acute respiratory syndrome coronavirus 2, UniProt P0DTD1)", "action": "inhibitor", "tested at": "20 µM"}
{"SMILES": "CC(=O)NC1=NN(C(C)=O)C(C)(c2ccccc2)S1 (centres unmarked)", "inhibition [%]": 3.62}
{"SMILES": "CCOc1cncc(/C=C/CCNC)c1", "inhibition [%]": 2.41}
{"SMILES": "CC(C)(C)NCC(O)c1cc(Cl)c(N)c(C(F)(F)F)c1 (centres unmarked)", "inhibition [%]": 3.12}
{"SMILES": "CC(=O)NCC(=O)N[C@H](CCC(=O)O)C(=O)O", "inhibition [%]": 10.6}
{"SMILES": "CC[N+](CC)(CCNC(=O)C(=O)NCC[N+](CC)(CC)Cc1ccccc1Cl)Cc1ccccc1Cl", "inhibition [%]": 8.93}
{"SMILES": "COc1ccc(C(=O)c2c(C)n(CCN3CCOCC3)c3ccccc23)cc1", "inhibition [%]": 7.96}
{"SMILES": "O=C(O)Cn1c(C(=O)Nc2nc(-c3ccccc3Cl)cs2)cc2ccccc21", "inhibition [%]": 5.2}
{"SMILES": "Nc1nonc1C(=Nc1ccc(F)c(Cl)c1)NO", "inhibition [%]": 5.07}
{"SMILES": "CNS(=O)(=O)Nc1nccc(Cc2c(C)c3ccc(Oc4ncccn4)cc3oc2=O)c1F", "inhibition [%]": -1.93}
{"SMILES": "Oc1ccc(Cl)cc1", "inhibition [%]": 2.96}
{"SMILES": "CNC(=O)c1ccccc1Nc1nc(Nc2ccc(N3CCOCC3)cc2OC)ncc1Cl", "inhibition [%]": -1.03}
{"SMILES": "CO/N=C(\\C(=O)N[C@@H]1C(=O)N2C(C(=O)O)=C(COC(N)=O)CS[C@H]12)c1ccco1", "inhibition [%]": 2.81}
{"SMILES": "Nc1ncnc2c1c(-c1cnc3[nH]ccc3c1)nn2C1CCCC1", "inhibition [%]": 4.31}
{"SMILES": "CCCCc1ccc(O)cc1O", "inhibition [%]": 4.17}
{"SMILES": "CCCOCCn1c(=O)c(N2CCN(CCO)CC2)nc2cnc(-c3ccc(OC)nc3)cc21", "inhibition [%]": 5.12}
{"SMILES": "NCc1ccccc1Sc1ccccc1CO", "inhibition [%]": -1.2}
{"SMILES": "CCc1c(C(=O)C(N)=O)c2c(OCC(=O)O)cccc2n1Cc1ccccc1", "inhibition [%]": 4.02}
{"SMILES": "C#C[C@]1(O)CC[C@H]2[C@@H]3CCC4=CC(=O)CCC4=C3C=C[C@@]21CC", "inhibition [%]": 10.5}
{"SMILES": "Cc1c(Nc2ncccc2C(=O)O)cccc1C(F)(F)F", "inhibition [%]": 6.38}
{"SMILES": "O=CC[C@@H](O)[C@H](O)[C@H](O)CO", "inhibition [%]": 1.59}
{"SMILES": "N=C(N)c1ccc(N2CCN(C3CCN(CC(=O)O)CC3)CC2)cc1", "inhibition [%]": 3.57}
{"data": "Set 3", "cell line": "HEK-293T/ACE2", "tested at": "10 µM", "time": "16 h", "reference": "vehicle"}
{"Structure (SMILES)": "CC(=O)N1CCN(c2ccc(OCC3COC(Cn4ccnc4)(c4ccc(Cl)cc4Cl)O3)cc2)CC1 (centres unmarked)", "viability [%]": 103}
{"Structure (SMILES)": "NC12CC3CC(CC(C3)C1)C2", "viability [%]": 100}
{"Structure (SMILES)": "CCCNC(C)C(=O)Nc1ccccc1C (centres unmarked)", "viability [%]": 100}
{"Structure (SMILES)": "CCC(=O)OCC(=O)[C@@]1(OC(=O)CC)[C@@H](C)C[C@H]2[C@@H]3CCC4=CC(=O)C=C[C@]4(C)[C@@]3(F)[C@@H](O)C[C@@]21C", "viability [%]": 102}
{"data": "Set 4", "target": "RING finger protein unkempt homolog, zinc fingers 1-6, GST-SBP tag (UNK, Homo sapiens, UniProt Q9C0B0, residues 30-357)", "technique": "RNA Bind-n-Seq", "form": "RNA", "matrix": "in vitro", "tested at": "not given", "setting": "RNA with constant flanks, human and mouse sites, ends assumed", "reference": "input RNA pool", "reading": "higher = stronger binding", "Residues (chain)": "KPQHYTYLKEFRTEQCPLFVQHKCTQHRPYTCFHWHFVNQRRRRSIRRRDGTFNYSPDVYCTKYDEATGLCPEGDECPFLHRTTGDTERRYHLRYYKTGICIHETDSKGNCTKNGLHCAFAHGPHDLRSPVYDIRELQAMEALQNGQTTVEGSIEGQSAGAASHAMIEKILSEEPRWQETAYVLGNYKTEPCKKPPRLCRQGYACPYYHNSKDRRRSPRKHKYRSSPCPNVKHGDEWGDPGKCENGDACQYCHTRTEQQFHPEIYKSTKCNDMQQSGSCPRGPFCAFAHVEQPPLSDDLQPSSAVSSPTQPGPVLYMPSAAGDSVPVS"}
{"Oligonucleotide": "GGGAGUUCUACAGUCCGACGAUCAUUUAGAGAAUGAUUUCCACCUUUAUGUUUUAAUAUCCUAGGCAUCUGCUGUAAUAAUAUUUUAGAAAAUGUUUGGAAUUUAAGAAAUAACUUGUGUUACUAAUUUGUAUAACCCAUAUCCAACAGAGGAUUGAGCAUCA", "bound/input enrichment": "2.69 ratio"}
{"Oligonucleotide": "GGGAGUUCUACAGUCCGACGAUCAAAGAGAUGAUUAAGAAGACAACAAAACUGAUUGAGACUACAUCCAACAUGAACUCCAGUUACAUUAAGUUUCUAAAACAGGCAGCAGAUAAUUCAGAAAUGACUUCUGCUAUGAAGUUACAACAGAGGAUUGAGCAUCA", "bound/input enrichment": "0.136 ratio"}
{"Oligonucleotide": "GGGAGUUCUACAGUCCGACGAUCAUUCCGAUUAUGGACACCGGUGAAAACCCAGAGGUUCCCUUCCCCCGGGACAUGAUUGACUUAGAGGCCAAUUUUGAGAAGAUUGAAAAUGAACUGAAGGAAAUCAACACAAACCAGGAACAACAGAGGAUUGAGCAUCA", "bound/input enrichment": "0.0916 ratio"}
{"Oligonucleotide": "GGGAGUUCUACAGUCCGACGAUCCAGGUUAGAGUUACUUGUUAUUGGUAAAUAGCCACUAUGGAGGCUAAGGACCAGAAGAAACACAGAAAGAAAAACAGUGGACCCAAAGCUGCAAAGAAAAAGAAGCGGCUUCUGCAGGAUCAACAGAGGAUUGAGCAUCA", "bound/input enrichment": "0.18 ratio"}
{"Oligonucleotide": "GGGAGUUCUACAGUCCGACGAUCGAUAACUAUUUCAUAUGGAGUUUCAUCGGGCCUGUUACUUUCAUUAUUCUGCUAAAUAUUAUUUUCCUGGUGAUCACGCUGUGCAAAAUGGUGAAACAUUCAAACACUCUGAAACCAGAUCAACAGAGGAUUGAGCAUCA", "bound/input enrichment": "0.177 ratio"}
{"Oligonucleotide": "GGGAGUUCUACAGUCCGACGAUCAUUAGACUUCGGUUAGAGAACUGUGAAGAUCGGCUGAUUAGACAGAUUCGAACUCCCCUGGAAAGAGAUGAUUUGCAUGAAAGUGUGUUCAGAAUCACAGAACAGGAGAAACUAAAGAAACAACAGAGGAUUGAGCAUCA", "bound/input enrichment": "0.387 ratio"}
{"Oligonucleotide": "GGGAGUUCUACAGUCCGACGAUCAACUACGUGAAGAUUAAGCUUUGCUUACUGAUACAUGGCAUGUAUUCUUUUCAGUCUUUUGUGUUUGAUUUUGUUUGAUUUCCCUCUGCAGCACAGCGUCUCUGUAAAGGUUUUUAUGCUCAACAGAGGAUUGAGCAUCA", "bound/input enrichment": "0.4 ratio"}
{"Oligonucleotide": "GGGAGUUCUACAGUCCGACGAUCAGAAGUACACAGGCUGCUACCCAAGUUGUUCUGAAUGUUCCUGAAACAAGAGUAACAUGUUUAGAAAGUGGACUCAGAGUAGCUUCGGAAGACUCUGGGCUCUCAACAUGCACAGUUGGACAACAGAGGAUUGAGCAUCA", "bound/input enrichment": "0.131 ratio"}
{"data": "Set 5", "target": "Replicase polyprotein 1ab, main protease (rep, Severe acute respiratory syndrome coronavirus 2, UniProt P0DTD1)", "read-out": "enzyme activity", "action": "inhibitor"}
{"Compound": "COc1ccc2[nH]c([S+]([O-])Cc3ncc(C)c(OC)c3C)nc2c1 (centres unmarked)", "IC50": "> 20 µM"}
{"Compound": "CN1CCN(C(=O)c2ccc(-c3ccc4c(C=O)c(O)ccc4c3)s2)CC1", "IC50": "> 20 µM"}
{"Compound": "C[S+]([O-])CCCCN=C=S (centres unmarked)", "IC50": "> 20 µM"}
{"Compound": "Sc1nnc(-c2ccccc2Cl)o1", "IC50": "7.71 µM"}
{"Compound": "CC1(C)C(/C=C/C=C/C=C/C=C2\\N(CCCCS(=O)(=O)O)c3ccc4ccccc4c3C2(C)C)=[N+](CCCCS(=O)(=O)[O-])c2ccc3ccccc3c21", "IC50": "15.9 µM"}
{"data": "Single results of other studies"}
{"Oligonucleotide": "GAGTCGTCTCGTCAGCACCATAACACCGTAGAGCACTCAGGTC", "target": "Sox, HMG box (Pigoraptor chileana)", "assay": "Spec-seq", "system": "double-stranded DNA, one strand shown, in vitro", "setting": "not given, whole probe, mean of replicates", "scale": "reference: not given, lower = stronger binding", "quantity": "relative binding energy", "result": "-0.34 ln ratio"}
{"note": "Excerpt of the above (set 2):"}
{"SMILES": "Oc1ccc(Cl)cc1", "inhibition [%]": 2.96}
{"SMILES": "CCCCc1ccc(O)cc1O", "inhibition [%]": 4.17}
{"SMILES": "CC(C)(C)NCC(O)c1cc(Cl)c(N)c(C(F)(F)F)c1 (centres unmarked)", "inhibition [%]": 3.12}
